Results collected from several papers.
Each line is one published result; not all experiments were run side by side. Numbers after ± are the reported error.

CCCC[C@H](NC(=O)CCCCCCCNC(=O)CN1CCN(CC(=O)O)CCN(CC(=O)O)CC1)C(=O)N[C@H]1CC(=O)NCCCC[C@@H](C(N)=O)NC(=O)[C@H](Cc2c[nH]c3ccccc23)NC(=O)[C@H](CCCNC(=N)N)NC(=O)[C@@H](Cc2ccccc2)NC(=O)[C@H](Cc2c[nH]cn2)NC1=O [copper-64 labelled] — tissue uptake (C57 mice, liver; intravenous, 0.37 MBq, 2 h): 2.19 ± 0.14 %ID/g
C=C1CC[C@H](OCCCNC(=O)CCOCCOCCOCCOCCOCCOCCOCCOCCOCCOCCOCCOCCOCCOCCOCCOCCOCCOCCOCCOCCOCCOCCOCCOCCOCCOCCOCCOCCOCCOCCOCCOCCOCCOCCOCCOCCNC(=O)CCN2C(=O)CC(SC[C@H](NC(=O)[C@H](Cc3ccccc3)NC(=O)[C@H](CC(N)=O)NC(=O)[C@H](Cc3c[nH]cn3)NC(=O)[C@@H](NC(=O)[C@H](CC(=O)O)NC(=O)[C@H](CCC(N)=O)NC(=O)[C@H](CC(C)C)NC(=O)[C@H](CCCCN)NC(=O)[C@H](CCCCN)NC(=O)[C@H](CCCNC(=N)N)NC(=O)[C@H](CC(C)C)NC(=O)[C@H](Cc3c[nH]c4ccccc34)NC(=O)[C@H](CCC(=O)O)NC(=O)[C@@H](NC(=O)[C@H](CCCNC(=N)N)NC(=O)[C@H](CCC(=O)O)NC(=O)[C@H](CCSC)NC(=O)[C@H](CO)NC(=O)[C@H](CC(N)=O)NC(=O)[C@H](CC(C)C)NC(=O)[C@H](Cc3c[nH]cn3)NC(=O)[C@H](CCCCN)NC(=O)CNC(=O)[C@H](CC(C)C)NC(=O)[C@H](CC(N)=O)NC(=O)[C@H](Cc3c[nH]cn3)NC(=O)[C@H](CCSC)NC(=O)[C@H](CC(C)C)NC(=O)[C@H](CCC(N)=O)NC(=O)[C@@H](NC(=O)[C@H](CCC(=O)O)NC(=O)[C@H](CO)NC(=O)[C@@H](NC(=O)[C@@H](N)CO)C(C)C)[C@@H](C)CC)C(C)C)C(C)C)C(N)=O)C2=O)C/C1=C/C=C1\CCC[C@]2(C)[C@@H]([C@H](C)CCCC(C)(C)O)CC[C@@H]12 (some centres unmarked) — dose-normalised Cmax (cynomolgus monkey; sc, 2 µg/kg every other day, 89 days; reference: 0.7 µg/kg dose): 0.84
COc1ccc2cc([C@H](C)C(=O)NCCCC[C@@H](NC(=O)[C@@H](Cc3ccccc3)NC(=O)[C@H](N)Cc3ccccc3)C(=O)N[C@H](Cc3ccc(O)cc3)C(=O)O)ccc2c1 — cumulative release (hydrogel 0.8 wt% into PBS; 24 h, pH 7.4, 37 °C): 31.7%
N=C(N)NCCC[C@@H]1NC(=O)[C@H](CCCCNC(=O)CNC(=O)CNC(=O)CNC(=O)CC[C@H](NC(=O)CNC(=O)CNC(=O)CNC(=O)CN2CCN(CC(=O)O)CCN(CC(=O)O)CCN(CC(=O)O)CC2)C(=O)NCC(=O)NCC(=O)NCC(=O)NCCCC[C@@H]2NC(=O)[C@@H](Cc3ccccc3)NC(=O)[C@H](CC(=O)O)NC(=O)CNC(=O)[C@H](CCCNC(=N)N)NC2=O)NC(=O)[C@@H](Cc2ccccc2)NC(=O)[C@H](CC(=O)O)NC(=O)CNC1=O [indium-111 labelled] — tissue uptake (female athymic nu/nu mice, blood; intravenous, 4 h): 0.09 %ID/g
CC(C)C[C@H](NC(=O)C[C@H](O)[C@H](CC(C)C)NC(=O)[C@H](Cc1c[nH]cn1)NC(=O)CNC(=O)[C@@H](NC(=O)[C@H](C)NC(=O)[C@H](Cc1c[nH]c2ccccc12)NC(=O)[C@H](CCC(N)=O)NC(=O)[C@@H](Cc1ccccc1)NC(=O)CCOCCOCCOCCNC(=O)CN1CCN(CC(=O)O)CCN(CC(=O)O)CC1)C(C)C)C(N)=O [gallium-68 labelled] — metabolite share (radio-HPLC; fetal bovine serum; 120 min, 37 °C): 19.4%
CCCC[C@H](NC(=O)CNC(=O)CNC(=O)CN1CCN(CC(=O)O)CCN(CC(=O)O)CC1)C(=O)N[C@H]1CC(=O)NCCCC[C@@H](C(N)=O)NC(=O)[C@H](Cc2c[nH]c3ccccc23)NC(=O)[C@H](CCCNC(=N)N)NC(=O)[C@@H](Cc2ccccc2)NC(=O)[C@H](Cc2c[nH]cn2)NC1=O [technetium-99m labelled] — tissue uptake (C57 mouse, lung; iv, 0.037 MBq, 0.5 h): 2.11 ± 0.65 %ID/g
N=C(N)NCCC[C@@H]1NC(=O)[C@H](CCCCNC(=O)CNC(=O)CNC(=O)CNC(=O)CC[C@H](NC(=O)CNC(=O)CNC(=O)CNC(=O)CC[C@H](NC(=O)CN2CCN(CC(=O)O)CCN(CC(=O)O)CCN(CC(=O)O)CC2)C(=O)NCC(=O)NCC(=O)NCC(=O)N[C@@H](CCC(=O)NCC(=O)NCC(=O)NCC(=O)NCCCC[C@@H]2NC(=O)[C@@H](Cc3ccccc3)NC(=O)[C@H](CC(=O)O)NC(=O)CNC(=O)[C@H](CCCNC(=N)N)NC2=O)C(=O)NCC(=O)NCC(=O)NCC(=O)NCCCC[C@@H]2NC(=O)[C@@H](Cc3ccccc3)NC(=O)[C@H](CC(=O)O)NC(=O)CNC(=O)[C@H](CCCNC(=N)N)NC2=O)C(=O)NCC(=O)NCC(=O)NCC(=O)NCCCC[C@@H]2NC(=O)[C@@H](Cc3ccccc3)NC(=O)[C@H](CC(=O)O)NC(=O)CNC(=O)[C@H](CCCNC(=N)N)NC2=O)NC(=O)[C@@H](Cc2ccccc2)NC(=O)[C@H](CC(=O)O)NC(=O)CNC1=O [indium-111 labelled] — tissue uptake (female athymic nu/nu mice, U87MG tumour; intravenous, 111 kBq, 4 h): 8.99 ± 2.61 %ID/g
CC(C)C[C@@H](NC(=O)[C@@H](CC(C)C)NC(=O)[C@@H](CC(=O)O)NC(=O)[C@@H](CC(C)C)NC(=O)[C@@H](CC(C)C)NC(=O)[C@@H](CC(C)C)NC(=O)[C@H](NC(=O)[C@@H](CC(=O)O)NC(=O)[C@H](NC(=O)[C@H]1CCCN1C(=O)[C@@H](Cc1ccccc1)NC(=O)[C@@H](CC(C)C)NC(=O)[C@@H](CC(C)C)NC(=O)[C@@H](CC(=O)O)NC(=O)[C@@H](CC(C)C)NC(=O)[C@@H](Cc1ccc(O)cc1)NC(=O)[C@@H](C)NC(=O)[C@@H](CCCNC(=N)N)NC(=O)[C@@H](Cc1c[nH]c2ccccc12)NC(=O)[C@H]1CCCN1C(=O)[C@@H](CC(N)=O)NC(=O)[C@@H](CCC(N)=O)NC(=O)[C@@H](CC(=O)O)NC(=O)[C@@H](CC(=O)O)NC(=O)[C@@H](CSC1CC(=O)N(CCNC(=O)CN2CCN(CC(=O)O)CCN(CC(=O)O)CC2)C1=O)NC(=O)[C@@H](C)N)[C@H](C)O)[C@H](C)O)C(=O)N[C@H](Cc1c[nH]c2ccccc12)C(=O)O (some centres unmarked) [copper-64 labelled] — tumour-to-bone ratio (male nude mice, PC-3 xenograft; intravenous, 4 h; reference: tumour over bone): 2.7 ± 0.6

A few entries again:
COc1ccc2cc([C@H](C)C(=O)NCCCC[C@@H](NC(=O)[C@@H](Cc3ccccc3)NC(=O)[C@H](N)Cc3ccccc3)C(=O)N[C@H](Cc3ccc(O)cc3)C(=O)O)ccc2c1 — cumulative release (hydrogel 0.8 wt% into PBS; 24 h, pH 7.4, 37 °C): 31.7%
